Measured values pooled from the literature.
Every numbered part comes from another study and shows a few of its results, in no order.

Sample 1 — method: RNA Bind-n-Seq; form: RNA; matrix: in vitro; tested at: 1 µM; setting: whole 134-nt RNA, ends assumed; with: 150 mM KCl; reference: input library; direction: higher = stronger binding
Target: Ras GTPase-activating protein-binding protein 1, RRM domain (G3BP1, Homo sapiens, UniProt Q13283)
Chain of UniProt Q13283 (whole entry, looked up): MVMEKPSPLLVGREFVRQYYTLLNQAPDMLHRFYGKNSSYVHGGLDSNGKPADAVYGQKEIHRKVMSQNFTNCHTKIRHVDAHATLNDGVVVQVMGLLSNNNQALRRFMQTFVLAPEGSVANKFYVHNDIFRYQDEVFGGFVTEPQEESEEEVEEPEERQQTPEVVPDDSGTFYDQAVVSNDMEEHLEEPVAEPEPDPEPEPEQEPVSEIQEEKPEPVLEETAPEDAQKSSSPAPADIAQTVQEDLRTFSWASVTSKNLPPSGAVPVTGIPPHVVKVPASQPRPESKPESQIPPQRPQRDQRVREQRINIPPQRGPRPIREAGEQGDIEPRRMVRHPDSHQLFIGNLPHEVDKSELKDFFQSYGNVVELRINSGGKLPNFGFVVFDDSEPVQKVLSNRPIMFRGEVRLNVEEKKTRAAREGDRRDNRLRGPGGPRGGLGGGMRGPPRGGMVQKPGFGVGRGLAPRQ
All sequences stand within: GGGAGUUCUACAGUCCGACGAUC … UGGAAUUCUCGGGUGUCAAGG
Strand	log2 enrichment
UUGUUUAGCAAUCAAGGAGACCGCGAAGGCGUACAUUCCCGGGUGUUGCUUCCAGGAGAAACCCUGAACGGAGAGCUCGUCCUCUUACCA	-0.0402
UCCUGUGCUACACAUCGUAUGUACCGAAUCGGGGUUUUUUUGGGGUGGGGAAAAAGGGGAAAGUAUUAUGUUACGCCGUUCGGAUCUGCA	0.566
AAGUCCUGUGCUACACAUCGUAUGUACCGAAUCAAACCCAAACCCAAAUUUUUAAAAAAGUAUUAUGUUACGCCGUUCGGAUCUGCACUU	-0.151
GUCCUGUGCUACACAUCGUAUGUACCGAAUCGGGGAAAAAGGGGUUUGGGGUUUGGGGAAAGUAUUAUGUUACGCCGUUCGGAUCUGCAC	1.68
GCAGGAAGUAAAAACAAAUGGAAAUGCUUCGGAUAGUGGCAGGGGUGGGGGUUGCUAAGGAAAGGGUGGGAUGGGAGUGAAAAAAGAGUU	1.1
CAAGUCCUGUGCUACACAUCGUAUGUACCGAAUCGGGGAGGGGAGGGGUUUGGGGAAAGUAUUAUGUUACGCCGUUCGGAUCUGCACUUC	1.02

Sample 2 — method: universal PBM; form: double-stranded DNA, one strand shown; matrix: in vitro; tested at: 600 nM; direction: higher = stronger binding
Target: Sal-like protein 4, full length isoform A (SALL4, Homo sapiens, UniProt Q9UJQ4, residues 1-1053)
Chain of UniProt Q9UJQ4 (whole entry, looked up): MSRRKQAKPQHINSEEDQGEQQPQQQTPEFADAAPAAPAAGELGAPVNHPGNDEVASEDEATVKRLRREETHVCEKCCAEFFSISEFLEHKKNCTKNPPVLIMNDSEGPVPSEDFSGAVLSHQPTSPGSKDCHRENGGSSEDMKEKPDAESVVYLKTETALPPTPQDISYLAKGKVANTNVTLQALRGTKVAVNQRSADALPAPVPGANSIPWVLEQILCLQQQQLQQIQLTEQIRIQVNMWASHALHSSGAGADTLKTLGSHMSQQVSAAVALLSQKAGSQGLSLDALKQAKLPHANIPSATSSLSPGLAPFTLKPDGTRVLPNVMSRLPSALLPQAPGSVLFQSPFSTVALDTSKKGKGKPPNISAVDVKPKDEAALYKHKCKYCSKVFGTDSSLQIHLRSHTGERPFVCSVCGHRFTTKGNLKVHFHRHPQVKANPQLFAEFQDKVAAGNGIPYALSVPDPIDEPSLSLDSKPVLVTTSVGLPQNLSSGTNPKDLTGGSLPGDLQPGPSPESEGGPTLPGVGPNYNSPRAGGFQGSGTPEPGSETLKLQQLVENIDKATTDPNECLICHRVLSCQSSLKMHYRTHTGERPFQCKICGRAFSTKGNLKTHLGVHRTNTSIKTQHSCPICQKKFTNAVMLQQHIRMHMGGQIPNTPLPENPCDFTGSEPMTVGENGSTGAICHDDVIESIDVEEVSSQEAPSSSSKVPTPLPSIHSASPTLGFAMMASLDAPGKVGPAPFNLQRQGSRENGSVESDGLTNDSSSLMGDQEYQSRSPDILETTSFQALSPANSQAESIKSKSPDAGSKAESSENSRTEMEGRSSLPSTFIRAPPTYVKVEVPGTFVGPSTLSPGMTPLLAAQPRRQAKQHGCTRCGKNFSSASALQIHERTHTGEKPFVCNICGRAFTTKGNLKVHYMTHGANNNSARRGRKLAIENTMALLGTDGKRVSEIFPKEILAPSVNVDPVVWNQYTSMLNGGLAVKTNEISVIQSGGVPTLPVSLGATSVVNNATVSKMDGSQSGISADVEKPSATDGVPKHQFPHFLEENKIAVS
Setting: 8-mer, flanks averaged, mean of replicates
Strand	E-score
ATAGCATC	0.198
GGCAAGAC	-0.158
CAGATACG	-0.0642
TGCCCCCA	-0.101
GATTTGAA	0.243

Sample 3 — method: aptamer microarray, sandwich; form: DNA with 2'F-ANA; matrix: in vitro; tested at: 200 nM; with: Cy3 exosite-II aptamer, 400 nM; direction: higher = stronger binding
Target: Prothrombin, mature alpha-thrombin (F2, Homo sapiens, UniProt P00734)
Setting: whole 15-mer aptamer, many near background
Strand	mean fluorescence intensity
GGTTGGTGTGGTTGG (2'F-ANA at 2 3 4 5 6 7 12)	210 a.u.
GGTTGGTGTGGTTGG (2'F-ANA at 1 3 4 6 7 10 11 14 15)	64.2 a.u.
GGTTGGTGTGGTTGG (2'F-ANA at 1 3 4 6 7 8 10 11 13 14 15)	54.3 a.u.
GGTTGGTGTGGTTGG (2'F-ANA at 1 4 5 7 8 9 12 14)	64.5 a.u.

Single results of other studies
Molecule	target	assay	system	setting	how to read	endpoint	value
PhoQ, residues 284 288 289 292 302 303 ALVSVA	PhoP, residues 12 14 15 18 19 LWHCS (Escherichia coli, UniProt P23836)	Sort-seq, measured: YFP reporter	E. coli	PhoQ-PhoP variant library, with: 10 µM Mg2+	reference: high Mg2+ state, higher = stronger signaling	fold induction	4.33

A few entries again (single results of other studies):
Molecule	target	assay	system	setting	how to read	endpoint	value
PhoQ, residues 284 288 289 292 302 303 ALVSVA	PhoP, residues 12 14 15 18 19 LWHCS (Escherichia coli, UniProt P23836)	Sort-seq, measured: YFP reporter	E. coli	PhoQ-PhoP variant library, with: 10 µM Mg2+	reference: high Mg2+ state, higher = stronger signaling	fold induction	4.33
